Measured values gathered from unrelated publications.
Compare with care: the assays were run in different laboratories. ± marks the error that the study gave.

Structure (SMILES) = CCOC(=O)N1C[C@@H](c2ccc(Cl)cc2)N[C@@H](c2cccc(Br)c2)C1; method = shake-flask, LC-HRMS; matrix = aqueous buffer; time = 16 h; pH = pH 6.8; solubility = < 4 µM
Structure (SMILES) = COc1ccc(NC(=O)CN2CCOCC2)c([N+](=O)[O-])c1; matrix = aqueous buffer; pH = pH 7.4; solubility = 46.5 µg/mL
Structure (SMILES) = COc1cc(OC)c2c(=O)c(OC)c(-c3ccccc3)oc2c1; method = HPLC; matrix = ethanol:butylene glycol 50:50; solubility = 2392 ± 15 ppm
Structure (SMILES) = CCOC(=O)N1C[C@@H](c2ccc(C(F)(F)F)cc2)N[C@@H](c2ccc(F)c(C#N)c2)C1; method = shake-flask, LC-HRMS; matrix = aqueous buffer; time = 16 h; pH = pH 6.8; solubility = < 4 µM
Structure (SMILES) = C[C@@H](O)[C@H](NC(=O)c1ccc(-c2ccc(Br)cc2)cc1)C(=O)NO; matrix = aqueous buffer; pH = pH 7.4; solubility = < 4.21 µg/mL
Structure (SMILES) = N#Cc1ccc([C@H]2COC[C@@H](C3CCCC3)N2)cc1; method = shake-flask, LC-HRMS; matrix = aqueous buffer; time = 16 h; pH = pH 6.8; solubility = > 750 µM
Structure (SMILES) = CC(C)(C)Nc1ccnc(Nc2cccc(-c3cccnc3)c2)n1; matrix = citrate phosphate-buffered saline; time = 18 h; pH = pH 7.4; notes = 1% DMSO; solubility = 13.1 ± 3.3 µM
Structure (SMILES) = CCOC(=O)N1C[C@@H](c2cccc(Br)c2)N[C@H](c2ccccc2O)C1; method = shake-flask, LC-HRMS; matrix = aqueous buffer; time = 16 h; pH = pH 6.8; solubility = < 4 µM
Structure (SMILES) = Cn1cncc1[C@@](N)(c1ccc(Cl)cc1)c1ccc2c(c1)c(-c1cccc(Cl)c1)cc(=O)n2C; matrix = USP phosphate buffer; pH = pH 7.5; temperature = 25 °C; notes = final pH 7.49; solubility = 0.14 µg/mL
Structure (SMILES) = CCOC(=O)N1C[C@@H](c2cnn(C)c2)N[C@@H](c2ccc(C(F)(F)F)cc2)C1; method = shake-flask, LC-HRMS; matrix = aqueous buffer; time = 16 h; pH = pH 6.8; solubility = > 750 µM
Structure (SMILES) = COc1ccccc1-n1nnnc1SCC(=O)Nc1ccccc1SC; matrix = aqueous buffer; pH = pH 7.4; solubility = < 2.77 µg/mL
Structure (SMILES) = CC[C@H](C)Nc1ccnc(Nc2cccc(-c3cccnc3)c2)n1; matrix = citrate phosphate-buffered saline; time = 18 h; pH = pH 7.4; notes = 1% DMSO; solubility = 15.9 ± 3 µM
Structure (SMILES) = O=S(=O)(c1ccc(-c2ccc3nccc(Nc4cncs4)c3c2)cc1)N1CCOCC1; method = thermodynamic; matrix = aqueous medium; solubility = 13 µM
Structure (SMILES) = Cc1nc(C)c(-c2ccnc(Nc3ccc(N(C)C)c([N+](=O)[O-])c3)n2)s1; matrix = aqueous buffer; pH = pH 7.4; solubility = < 1.32 µg/mL
Structure (SMILES) = Clc1ccc([C@@H]2COC[C@H](c3cc(Cl)cc(Cl)c3)N2)cc1; method = shake-flask, LC-HRMS; matrix = aqueous buffer; time = 16 h; pH = pH 6.8; solubility = < 4 µM
Structure (SMILES) = CCn1c(SCC(=O)Nc2cccc(OC)c2)nnc1-c1ccncc1; matrix = aqueous buffer; pH = pH 7.4; solubility = 4.6 µg/mL
Structure (SMILES) = Cc1n(Cc2ccc3ccccc3n2)cc[n+]1Cc1ccc2ccccc2c1.[Br-]; matrix = aqueous 2-hydroxypropyl-β-cyclodextrin; solubility = > 10000 µM
Structure (SMILES) = CC#Cc1cncc(-c2ccc3c(c2)[C@@]2(N=C(C)C(N)=N2)[C@]2(CC[C@H](OC)CC2)C3)c1; method = dried-DMSO method; solubility = 35.3 µM
Structure (SMILES) = CCOC(=O)N1C[C@@H](c2cccnc2)N[C@@H](c2ccc(C(=O)OC)cc2)C1; method = shake-flask, LC-HRMS; matrix = aqueous buffer; time = 16 h; pH = pH 6.8; solubility = > 750 µM
Structure (SMILES) = COC(=O)Nc1ccc2nc(C(=N)N)ccc2c1; matrix = aqueous buffer; pH = pH 7.4; solubility = 78.9 µg/mL
Structure (SMILES) = COc1ccc(-n2nc(C(=O)NC(=O)OCc3cc(C(=O)O)ccc3OP(=O)(O)O)c3c2C(=O)N(c2ccc(N4CCCCC4=O)cc2)CC3)cc1; method = HPLC, saturated solution; matrix = simulated gastric fluid; time = 30 s; pH = pH 1.2; solubility = 240 µg/mL
Structure (SMILES) = COC1=CC(c2ccc[nH]2)=N/C1=C\c1[nH]c(-c2ccccc2)cc1-c1ccccc1; matrix = potassium phosphate buffer; time = 1.5 h; pH = pH 7.4; temperature = room temperature; solubility = < 3.13 µM
Structure (SMILES) = CC(C)(C)c1ccc([C@@H]2COC[C@H](c3ccc(Cl)cc3)N2)cc1; method = shake-flask, LC-HRMS; matrix = aqueous buffer; time = 16 h; pH = pH 6.8; solubility = < 4 µM
Structure (SMILES) = Nc1nc2c(ncn2COCCO)c(=O)[nH]1; method = shake-flask; matrix = methanol-ethanol mixture; temperature = 298.2 K; notes = mass fraction 0.3; solubility = 570 µg/mL
Structure (SMILES) = CC(C)(C)c1ccc(CN2CCN(C(c3ccccc3)c3ccc(Cl)cc3)CC2)cc1 (stereo not shown); matrix = PBS; time = 2 h; pH = pH 7.4; temperature = 25 °C; solubility = 3 µM

Repeated from above:
Structure (SMILES) = CC(C)(C)Nc1ccnc(Nc2cccc(-c3cccnc3)c2)n1; matrix = citrate phosphate-buffered saline; time = 18 h; pH = pH 7.4; notes = 1% DMSO; solubility = 13.1 ± 3.3 µM
Structure (SMILES) = CCOC(=O)N1C[C@@H](c2cccc(Br)c2)N[C@H](c2ccccc2O)C1; method = shake-flask, LC-HRMS; matrix = aqueous buffer; time = 16 h; pH = pH 6.8; solubility = < 4 µM
